Measurements of several laboratories.
Lines come from different studies, so protocols differ. ± gives the spread as reported.

SMILES	assay	system	conditions	scale	endpoint	value
CCCC[C@H](NC(=O)CCCCCCCNC(=O)c1ccc(NN)nc1)C(=O)N[C@H]1CC(=O)NCCCC[C@@H](C(N)=O)NC(=O)[C@H](Cc2c[nH]c3ccccc23)NC(=O)[C@H](CCCNC(=N)N)NC(=O)[C@@H](Cc2ccccc2)NC(=O)[C@H](Cc2c[nH]cn2)NC1=O [technetium-99m labelled]	–	C57 mouse, B16/F1 melanoma, blood	intravenous, 0.5 h	–	uptake	2.98 ± 1.77 %ID/g
CC(C)C[C@H](NC(=O)C[C@H](O)[C@H](CC(C)C)NC(=O)[C@H](Cc1c[nH]cn1)NC(=O)CNC(=O)[C@@H](NC(=O)[C@H](C)NC(=O)[C@H](Cc1c[nH]c2ccccc12)NC(=O)[C@H](CCC(N)=O)NC(=O)[C@@H](Cc1ccccc1)NC(=O)c1ccc(NC(=O)CNC(=O)CCC(C(=O)O)N2CCN(CC(=O)O)CCN(CC(=O)O)CC2)cc1)C(C)C)C(N)=O (stereo partly drawn) [fluorine-18 labelled]	PET imaging	mouse, PC-3 xenograft	intravenous, 0.5 h, blocking, added: AMBA 10 mg/kg	–	tumour uptake	2.5 ± 0.36 %ID/g
N=C(N)NCCC[C@@H]1NC(=O)[C@H](CC(=O)O)NC(=O)[C@@H](Cc2ccccc2)NC(=O)[C@H](CCCCNC(=O)CCOCCOCCOCCOCCNC(=O)CC[C@H](NC(=O)CCOCCOCCOCCOCCNC(=O)CC[C@H](NC(=O)CN2CCN(CC(=O)O)CCN(CC(=O)O)CCN(CC(=O)O)CC2)C(=O)NCCOCCOCCOCCOCCC(=O)N[C@@H](CCC(=O)NCCOCCOCCOCCOCCC(=O)NCCCC[C@@H]2NC(=O)CNC(=O)[C@H](CCCNC(=N)N)NC(=O)[C@H](CC(=O)O)NC(=O)[C@@H](Cc3ccccc3)NC2=O)C(=O)NCCOCCOCCOCCOCCC(=O)NCCCC[C@@H]2NC(=O)CNC(=O)[C@H](CCCNC(=N)N)NC(=O)[C@H](CC(=O)O)NC(=O)[C@@H](Cc3ccccc3)NC2=O)C(=O)NCCOCCOCCOCCOCCC(=O)NCCCC[C@@H]2NC(=O)CNC(=O)[C@H](CCCNC(=N)N)NC(=O)[C@H](CC(=O)O)NC(=O)[C@@H](Cc3ccccc3)NC2=O)NC(=O)CNC1=O [indium-111 labelled]	–	female athymic nude mouse, U-87 MG tumour	intravenous, 3 µCi, 1 h, U-87 MG glioma xenograft	–	tumour uptake	0.8 %ID/g
N=C(N)NCCC[C@@H]1NC(=O)[C@H](CCCCNC(=O)CNC(=O)CNC(=O)CNC(=O)CC[C@H](NC(=O)c2ccc(NN=Cc3ccccc3S(=O)(=O)O)nc2)C(=O)NCC(=O)NCC(=O)NCC(=O)NCCCC[C@@H]2NC(=O)[C@@H](Cc3ccccc3)NC(=O)[C@H](CC(=O)O)NC(=O)CNC(=O)[C@H](CCCNC(=N)N)NC2=O)NC(=O)[C@@H](Cc2ccccc2)NC(=O)[C@H](CC(=O)O)NC(=O)CNC1=O [technetium-99m labelled]	–	athymic nu/nu mouse, female, U-87 MG glioma xenograft	intravenous, 30 min	baseline: tumour over blood	tumour to tissue ratio	9.19 ± 1.79
N=C(N)NCCC[C@@H]1NC(=O)[C@H](CCCCNC(=O)CC[C@H](NC(=O)CCOCCOCCOCCOCCNC(=O)CC[C@H](NC(=O)CN2CCN(CC(=O)O)CCN(CC(=O)O)CCN(CC(=O)O)CC2)C(=O)NCCOCCOCCOCCOCCC(=O)N[C@@H](CCC(=O)NCCCC[C@@H]2NC(=O)[C@@H](Cc3ccccc3)NC(=O)[C@H](CC(=O)O)NC(=O)CNC(=O)[C@H](CCCNC(=N)N)NC2=O)C(=O)NCCCC[C@@H]2NC(=O)[C@@H](Cc3ccccc3)NC(=O)[C@H](CC(=O)O)NC(=O)CNC(=O)[C@H](CCCNC(=N)N)NC2=O)C(=O)NCCCC[C@@H]2NC(=O)[C@@H](Cc3ccccc3)NC(=O)[C@H](CC(=O)O)NC(=O)CNC(=O)[C@H](CCCNC(=N)N)NC2=O)NC(=O)[C@@H](Cc2ccccc2)NC(=O)[C@H](CC(=O)O)NC(=O)CNC1=O [indium-111 labelled]	–	athymic nude mice, female, U-87 MG glioma xenograft, tumour and blood	intravenous, 24 h	baseline: tumour over blood	tumour to tissue ratio	231 ± 137
N=C(N)NCCC[C@@H]1NC(=O)[C@H](CCCCNC(=O)CCOCCOCCOCCOCCNC(=O)CC[C@H](NC(=O)[C@H](CCCCNC(=O)c2ccc(NN)nc2)NC(=O)c2ccc(NN)nc2)C(=O)NCCOCCOCCOCCOCCC(=O)NCCCC[C@@H]2NC(=O)[C@@H](Cc3ccccc3)NC(=O)[C@H](CC(=O)O)NC(=O)CNC(=O)[C@H](CCCNC(=N)N)NC2=O)NC(=O)[C@@H](Cc2ccccc2)NC(=O)[C@H](CC(=O)O)NC(=O)CNC1=O [technetium-99m labelled]	–	female athymic nude mice	intravenous, 1 h, U-87 MG glioma xenograft	baseline: tumour over muscle	tissue ratio	8.68 ± 1.84
N=C(N)NCCC[C@@H]1NC(=O)[C@H](CCCCNC(=O)CNC(=O)CNC(=O)CNC(=O)CC[C@H](NC(=O)CCOCCOCCOCCOCCNC(=O)CC[C@H](NC(=O)CN2CCN(CC(=O)O)CCN(CC(=O)O)CCN(CC(=O)O)CC2)C(=O)NCCOCCOCCOCCOCCC(=O)N[C@@H](CCC(=O)NCC(=O)NCC(=O)NCC(=O)NCCCC[C@@H]2NC(=O)[C@@H](Cc3ccccc3)NC(=O)[C@H](CC(=O)O)NC(=O)CNC(=O)[C@H](CCCNC(=N)N)NC2=O)C(=O)NCC(=O)NCC(=O)NCC(=O)NCCCC[C@@H]2NC(=O)[C@@H](Cc3ccccc3)NC(=O)[C@H](CC(=O)O)NC(=O)CNC(=O)[C@H](CCCNC(=N)N)NC2=O)C(=O)NCC(=O)NCC(=O)NCC(=O)NCCCC[C@@H]2NC(=O)[C@@H](Cc3ccccc3)NC(=O)[C@H](CC(=O)O)NC(=O)CNC(=O)[C@H](CCCNC(=N)N)NC2=O)NC(=O)[C@@H](Cc2ccccc2)NC(=O)[C@H](CC(=O)O)NC(=O)CNC1=O [indium-111 labelled]	–	athymic nude mice, female, U-87 MG glioma xenograft, tumour and kidney	intravenous, 1 h	baseline: tumour over kidney	tumour to tissue ratio	1.84 ± 0.26
CSCC[C@H](NC(=O)[C@H](CC(C)C)NC(=O)[C@H](Cc1c[nH]cn1)NC(=O)CNC(=O)[C@@H](NC(=O)[C@H](C)NC(=O)[C@H](Cc1c[nH]c2ccccc12)NC(=O)[C@H](CCC(N)=O)NC(=O)CCCCCNC(=O)CNC(=O)CNC(=O)CNC(=O)CSC(C)=O)C(C)C)C(N)=O [technetium-99m labelled]	–	Swiss mouse, heart	intravenous, 18.5 MBq, 90 min	–	tissue uptake	0.06 ± 0.01 %ID/g
N=C(N)NCCC[C@@H]1NC(=O)[C@H](CCCCNC(=O)CC[C@H](NC(=O)CCOCCOCCOCCOCCNC(=O)CN2CCN(CC(=O)O)CCN(CC(=O)O)CCN(CC(=O)O)CC2)C(=O)NCCCC[C@@H]2NC(=O)[C@@H](Cc3ccccc3)NC(=O)[C@H](CC(=O)O)NC(=O)CNC(=O)[C@H](CCCNC(=N)N)NC2=O)NC(=O)[C@@H](Cc2ccccc2)NC(=O)[C@H](CC(=O)O)NC(=O)CNC1=O [indium-111 labelled]	–	athymic nude mice, female, U-87 MG glioma xenograft, tumour and liver	intravenous, 1 h	baseline: tumour over liver	tumour to tissue ratio	1.92 ± 0.15
C/C=C(/C)C(=O)O[C@H]1C(C)=C2[C@H]([C@@H]1OC(=O)CCCCCCC)[C@@](C)(OC(C)=O)C[C@H](OC(=O)CCCCCCCCCCCNC(=O)[C@H](CO)NC(=O)[C@@H]1CCCN1C(=O)CNC(=O)[C@@H](NC(=O)[C@H](CCC(=O)O)NC(=O)CNC(=O)[C@H](CCCNC(=N)N)NC(=O)[C@@H](N)CCC(=O)O)[C@@H](C)O)[C@@]1(O)[C@H]2OC(=O)[C@@]1(C)O	–	mouse, plasma	intravenous	–	Tmax	≤ 1 h
N=C(N)NCCC[C@@H]1NC(=O)[C@H](CCCCNC(=O)CCc2cn(CCC[C@@H]3O[C@H](COC(=O)NCCNC(=O)CN4CCN(CC(=O)O)CCN(CC(=O)O)CCN(CC(=O)O)CC4)[C@@H](O)[C@H](O)[C@H]3O)nn2)NC(=O)[C@@H](Cc2ccccc2)NC(=O)[C@H](CC(=O)O)NC(=O)CNC1=O [gallium-68 labelled]	PET	female NMRI nu/nu mice, U-87 MG xenograft, tumour	intravenous, 10 MBq, hour 2 of recording	–	SUVmean	0.21 ± 0.04 SUV
CCCC[C@H](NC(=O)CNC(=O)CNC(=O)c1ccc(NN)nc1)C(=O)N[C@H]1CC(=O)NCCCC[C@@H](C(N)=O)NC(=O)[C@H](Cc2c[nH]c3ccccc23)NC(=O)[C@H](CCCNC(=N)N)NC(=O)[C@@H](Cc2ccccc2)NC(=O)[C@H](Cc2c[nH]cn2)NC1=O [technetium-99m labelled]	–	C57 mouse, B16/F1 melanoma, brain	2 h, added: NDP-MSH 6.07 nmol blockade	–	uptake	0.01 ± 0.01 %ID/g

Some of these lines once more:
SMILES	assay	system	conditions	scale	endpoint	value
C/C=C(/C)C(=O)O[C@H]1C(C)=C2[C@H]([C@@H]1OC(=O)CCCCCCC)[C@@](C)(OC(C)=O)C[C@H](OC(=O)CCCCCCCCCCCNC(=O)[C@H](CO)NC(=O)[C@@H]1CCCN1C(=O)CNC(=O)[C@@H](NC(=O)[C@H](CCC(=O)O)NC(=O)CNC(=O)[C@H](CCCNC(=N)N)NC(=O)[C@@H](N)CCC(=O)O)[C@@H](C)O)[C@@]1(O)[C@H]2OC(=O)[C@@]1(C)O	–	mouse, plasma	intravenous	–	Tmax	≤ 1 h
N=C(N)NCCC[C@@H]1NC(=O)[C@H](CCCCNC(=O)CNC(=O)CNC(=O)CNC(=O)CC[C@H](NC(=O)c2ccc(NN=Cc3ccccc3S(=O)(=O)O)nc2)C(=O)NCC(=O)NCC(=O)NCC(=O)NCCCC[C@@H]2NC(=O)[C@@H](Cc3ccccc3)NC(=O)[C@H](CC(=O)O)NC(=O)CNC(=O)[C@H](CCCNC(=N)N)NC2=O)NC(=O)[C@@H](Cc2ccccc2)NC(=O)[C@H](CC(=O)O)NC(=O)CNC1=O [technetium-99m labelled]	–	athymic nu/nu mouse, female, U-87 MG glioma xenograft	intravenous, 30 min	baseline: tumour over blood	tumour to tissue ratio	9.19 ± 1.79
